Assay results collected from several papers.
Each numbered part is a random draw from the data of one study; scales do not carry over between parts. Substitutions count along the parent as printed.

Study 1
Target: Histone acetyltransferase KAT6A, both winged helices, GST fusion (KAT6A, Homo sapiens, UniProt Q92794, residues 1-181)
Method: protein binding microarray
Form: double-stranded DNA, one strand shown
Matrix: in vitro
Concentration: not given
Notes: 8-mer, flanks averaged, mean of 2 arrays, mostly near background
Baseline: not given
Direction: higher = stronger binding
Construct (chain): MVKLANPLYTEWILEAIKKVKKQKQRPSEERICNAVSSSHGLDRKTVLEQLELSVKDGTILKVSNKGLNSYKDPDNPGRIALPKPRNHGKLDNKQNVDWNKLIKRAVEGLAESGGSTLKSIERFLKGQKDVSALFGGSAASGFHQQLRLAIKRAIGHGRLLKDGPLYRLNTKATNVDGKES
Oligonucleotide | E-score
ATCAATCG | 0.0523
GAATAAAA | 0.0451
GAAACTCA | -0.0722
ATGCACTC | 0.119
TAAGCGCA | 0.177
CGTATACG | 0.131
CAACCTCA | -0.199
AGCCCACG | -0.109
ACGATTCA | -0.0294
CCTGGTTA | -0.211
AAGGTAGT | -0.164
AGGCGAAC | 0.152
AATGTACA | -0.0505
AAAACTCG | -0.0193
ATCGGTTA | 0.178
AGAATTAC | -0.0305
CTCAGGGA | -0.312
CTTATAGC | -0.0493
CGTCAGCC | 0.162

Study 2
Target: CCNA2, cyclin fold, Cln2 fusion (human)
Method: yeast growth competition, sequencing
Matrix: yeast
Notes: strong parent motif
Baseline: not given
Direction: higher = stronger binding
Starting sequence: RRM2 docking peptide (human); SKTARRIFQEPTE
Change | normalised enrichment score
SKTARRAFQEPTE [I7A] | -0.0633
SKTARRIFQAPTE [E10A] | 0.622
SKAARRIFQEPTE [T3A] | 0.759
SATARRIFQEPTE [K2A] | 0.197
SKTARRIFAEPTE [Q9A] | 0.96
SKTARRIAQEPTE [F8A] | 0.342

Study 3
Target: RING finger protein unkempt homolog, zinc fingers 1-6, GST-SBP tag (UNK, Homo sapiens, UniProt Q9C0B0, residues 30-357)
Method: RNA Bind-n-Seq
Form: RNA
Matrix: in vitro
Concentration: not given
Notes: RNA with constant flanks, ends assumed
Baseline: input RNA pool
Direction: higher = stronger binding
Construct (chain): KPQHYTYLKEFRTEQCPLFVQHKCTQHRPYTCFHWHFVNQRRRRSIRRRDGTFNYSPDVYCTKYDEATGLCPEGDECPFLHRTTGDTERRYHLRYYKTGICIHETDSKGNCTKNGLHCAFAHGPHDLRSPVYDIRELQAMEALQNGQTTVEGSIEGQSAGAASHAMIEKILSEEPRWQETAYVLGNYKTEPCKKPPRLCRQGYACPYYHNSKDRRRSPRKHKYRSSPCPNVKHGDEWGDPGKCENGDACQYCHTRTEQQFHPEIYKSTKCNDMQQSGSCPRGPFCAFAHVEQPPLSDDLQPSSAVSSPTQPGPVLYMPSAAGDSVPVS
Oligonucleotide | bound/input enrichment
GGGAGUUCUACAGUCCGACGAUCACAUUUUUAUGGUCUCCUAUGCCUGAACAUUAUGUGGAAGGAUCAACAGUCAAUUGUGUACCCGCAUUUCAAGGAUAUUACCUUCCAAAUGAUGAUGGAGAAUUUUAUCAGUUCUGUUACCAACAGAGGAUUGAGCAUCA | 0.166 ratio
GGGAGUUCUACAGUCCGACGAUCAUUCUUUUAUCACCAAAAAAGAGAAGAAAUAUUGCAGUGAAUGAAGAUUCCUCUGCAUUUCCGCACUGCUUUUUCAACUGUAGUUGGCUUUUGAAUGAGGAUGACAAUGGAAGAGAUGAACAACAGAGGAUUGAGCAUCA | 0.167 ratio
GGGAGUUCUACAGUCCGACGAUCCUUAAAAUUAAUUUUCAUGGUUCCAAGUCAUCAGAUUCUAGUGAAGUUCACAAGAGUAAAACCGAAAUUAAUGUGUUAGAACCAGUUAUGUCACAGCUAUCAAAUUGCCAAGAUAAUUCUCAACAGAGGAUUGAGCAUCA | 0.395 ratio
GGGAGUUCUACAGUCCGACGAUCGACGCCUCAGAUUUUGAGCAUAUCACUGCAGACACCCCGUCUCGGCCCCUGUCAGCCACCCGCAACCCUUUUAAGAGCUCCAAGGGCUCCCCUACUGGGAGCUCCCCAAACAAUGCAAGUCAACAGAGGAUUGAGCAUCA | 0.373 ratio
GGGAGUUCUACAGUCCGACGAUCCCUGAGAAUGUCUAUAGCGUUCACUUCGAAAAGGAGCAUAAAGCUGAGAAAGUCCCAGCCGCCGCUAACUACAUUAUGAAAAUACACAAUUUUACUAGCAAAUGCCUCUACUGUAAUCGCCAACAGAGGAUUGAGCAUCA | 2.63 ratio
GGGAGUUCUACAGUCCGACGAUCGGGACACAUACUGUAGUAUACUAGUGGGUGGGAGGCAUGGGGGUUAAGAUUGUAUAAACCACCGAUCCUGUGUAAGUUAGAGUUGUUGCUUACAUUUCAUAUAGAGUCUCACUAUUCAUACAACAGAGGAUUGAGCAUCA | 0.999 ratio
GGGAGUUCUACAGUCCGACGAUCGAAAUGGCCACCACAGAAGAUGCUCAGGCUGCUGUGGAUUAUUAUACAACUACACCAGCAUCCGUGUUUGGCAAGCCAGUGAGAGUUCAUUUAUCCCAGAAGUAUAAGAGAAUAAAGAAACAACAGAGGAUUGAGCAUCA | 0.581 ratio
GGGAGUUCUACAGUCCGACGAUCUUGUCACCUGCUUUCCACCAAGCACUACUCUCUUUUUGUCGAAUGUCAGCAGAUAGUCGGUCCGGAUCAGAGGUGUCUAGGAUUGCAGACAGUGAAAAAAGUGUUAUGUUAAUGCUGGGACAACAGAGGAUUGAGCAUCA | 0.134 ratio
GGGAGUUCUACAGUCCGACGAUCGCUUGUGCCACUCAGGCUAUCGUAAGUGUACUACUGAACUGUACGCAUCAAGAUGUGCAUUCCGGAGAGACAUUAUCAGAAUUUAAAGAAUUUUCUCAAAGUUUUGAUGCAGCUAUGAAGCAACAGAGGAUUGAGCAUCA | 0.0928 ratio
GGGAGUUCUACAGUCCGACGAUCCUUUAUGGGCCUCGAAGAGUUGAAAUAAUGGAAGAAGAAAGUGAACAGUAAUCUUCAAUUCCGCUAUUUAUGCUUAGGUGUGAAUGUUUUUGUUGUUGUUGUUGAACAUUUCUAUAAUCUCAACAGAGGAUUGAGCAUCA | 0.207 ratio
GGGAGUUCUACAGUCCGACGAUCGAUUACAAGGGCCAGAAGCUAGCUGAACAGAUGUUUCAGGGAAUUAUUCUUUUUUCUGCAACCGUUGGAUUUAUCUACGGGUACGUGGCUGAACAGUUCGGGUGGACUGUCUAUAUAGUUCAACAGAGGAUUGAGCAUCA | 0.505 ratio

Study 4
Target: RNA binding protein fox-1 homolog 2, RRM domain, GST-SBP tag (RBFOX2, Homo sapiens, UniProt O43251-10, residues 100-194)
Method: RNA Bind-n-Seq
Form: RNA
Matrix: in vitro
Concentration: 365 nM
Notes: natural RNA segment, single round, ends assumed
Baseline: no-protein control
Direction: higher = stronger binding
Target sequence (chain): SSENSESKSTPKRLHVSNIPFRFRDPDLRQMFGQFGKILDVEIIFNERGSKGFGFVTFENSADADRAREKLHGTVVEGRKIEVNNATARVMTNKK
Oligonucleotide | RBNS enrichment (R)
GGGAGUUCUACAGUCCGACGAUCGAUAGCAUCCACACAAAAUUCUAUAAUCGGAAAGAUCUUUGUAACUAAUCUGAAAUACACAUAAAUGUCAGUUACAGAGGAACAUUGUUGGGGGCAGGAGGUAAAGAAACUGGAAUUCUCGGGUGCCAA | 0.545
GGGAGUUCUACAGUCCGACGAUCACAGCAGUGACUCAGAGUGAACUCGGACUGGGACAGAGCUGGACAGAUGGACGUGGUGCACGCCAACGCAGUGUCCCCUCCUAUGGUUAAUAUACUUUCGUUCCAUGGUGUGGAAUUCUCGGGUGCCAA | 1.14
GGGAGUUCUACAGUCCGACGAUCUUUAUCAUUGGGAGAAGCCGCAGGGACAGAACUGAACGUCCUGCAGCUUCGGGGCAAGUGAGACAAUCACAGCUCCUCGCUGCGUCUCCAUCAACACUGCGCCGGGUACCUGGAAUUCUCGGGUGCCAA | 0.273
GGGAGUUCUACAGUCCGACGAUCCCAGCUGAGGUUUUUCCUCUGUCUCUCUAGGAAUAGGGUCUGUUUCACAGGCCAUUUCUGUGAACCCUACUCCAUUGUGGUUUCUGCCACUAUCAAAGUUCCAGCUACCUUGGAAUUCUCGGGUGCCAA | 0.216
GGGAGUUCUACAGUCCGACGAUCAUGAUGGCUAAUACUCAGGCAGAGCCCCGUAUUCUUCCCUGACUUGGUCAAAACAAACUUCCUUUUCCCUUGAUCACCCUGCACGCAGCUGCCCAGCUUCCAGUUUUUAAUGGAAUUCUCGGGUGCCAA | 3.38
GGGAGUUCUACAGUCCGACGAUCACUCACAUUCCUCAUUCCUAAGAAUUUGGAGCUAGCUGUUUGCCUUUGACUCCCUGACUUCAAGCCAGGGUUGUGCCUUACUGUCCCUUUUCUGGGCCUCAUUCUGCCAAUGGAAUUCUCGGGUGCCAA | 0.173
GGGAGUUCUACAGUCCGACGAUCAUAGCUCUGUGCUCUGGGCAGCUCUGAGCUCUCAGCCCUGUUGCUUUCAAUGUCAGUCACAGAGUGGAAGUUUCCCCAAAGUGGAAAGCUACCAUUGGGAACACAAGGGGUGGAAUUCUCGGGUGCCAA | 0.223
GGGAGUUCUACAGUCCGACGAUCCAAGUGCAUUGAUAUGUGAAGUAGAAUGAAUUGCAGAGGAAAGUUUUAUGAAUAUGGUGAUGAGUUAGUAAAAGUGGCCAUUAUUGGGCUUAUUCUCUGCUCUAUAGUUGUGGAAUUCUCGGGUGCCAA | 4.65
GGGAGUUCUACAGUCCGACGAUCUUUUCUAGACCUGUUUUGCUUUUGUAACUUGAAGAUAUUUAUUCUGGGUUUUGUAGCAUUUUUAUUAAUAUGGUGACUUUUUAAAAUAAAAACAAACAAACGUUGUCCUAUGGAAUUCUCGGGUGCCAA | 0.883
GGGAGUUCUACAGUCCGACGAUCGCACACAGAGUUCAUGUUUGCGCCCUCUCCCUGCCCCUCACCCCAGAGGGUGAGGAGGAAUGAGGGGCAUUGGUGGUUAGGCCGGUUGGCUGUCUUGAACAGCUGGAGGGUGGAAUUCUCGGGUGCCAA | 1.47
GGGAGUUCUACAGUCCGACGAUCAGGAAAGUUAGGAGAUAUUCAUCUUAAGAGAUAUCCUAUUUGGCAGUCACAUGUUACACUUGAGCAACAAUUGUCUAGGCUAGAAAUAUAGAACCACACAAUAUUUAUCAUGGAAUUCUCGGGUGCCAA | 0.527
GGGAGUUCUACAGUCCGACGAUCCUACAACCUGUUCUGGGACAGUAUCAAUACUGAUGAGCAACCUGGCACACAAACUAUGAGCAGACCACUUCAGCUUGAGAAUGCAGUGGGUCUGAAGAUGGUCAAGUCUGUGGAAUUCUCGGGUGCCAA | 5.96
